Experimental data collected from several papers.
A part holds a random share of what one study measured.
Sequence of UniProt Q9Y385 (whole entry, looked up): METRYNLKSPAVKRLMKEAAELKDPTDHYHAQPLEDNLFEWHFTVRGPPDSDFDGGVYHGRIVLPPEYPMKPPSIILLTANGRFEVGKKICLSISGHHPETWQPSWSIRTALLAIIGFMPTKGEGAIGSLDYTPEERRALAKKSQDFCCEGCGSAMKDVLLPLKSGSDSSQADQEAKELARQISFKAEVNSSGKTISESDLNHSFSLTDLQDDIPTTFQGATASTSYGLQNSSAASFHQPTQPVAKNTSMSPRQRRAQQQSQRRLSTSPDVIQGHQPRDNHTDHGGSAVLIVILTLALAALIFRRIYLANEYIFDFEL
Sequence of UniProt P61081 (whole entry, looked up): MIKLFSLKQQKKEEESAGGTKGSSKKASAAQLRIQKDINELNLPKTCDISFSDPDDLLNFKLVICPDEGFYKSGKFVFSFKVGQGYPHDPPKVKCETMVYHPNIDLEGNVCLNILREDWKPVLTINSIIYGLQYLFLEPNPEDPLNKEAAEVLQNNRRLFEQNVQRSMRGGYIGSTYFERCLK
Sequence of UniProt Q9H832 (whole entry, looked up): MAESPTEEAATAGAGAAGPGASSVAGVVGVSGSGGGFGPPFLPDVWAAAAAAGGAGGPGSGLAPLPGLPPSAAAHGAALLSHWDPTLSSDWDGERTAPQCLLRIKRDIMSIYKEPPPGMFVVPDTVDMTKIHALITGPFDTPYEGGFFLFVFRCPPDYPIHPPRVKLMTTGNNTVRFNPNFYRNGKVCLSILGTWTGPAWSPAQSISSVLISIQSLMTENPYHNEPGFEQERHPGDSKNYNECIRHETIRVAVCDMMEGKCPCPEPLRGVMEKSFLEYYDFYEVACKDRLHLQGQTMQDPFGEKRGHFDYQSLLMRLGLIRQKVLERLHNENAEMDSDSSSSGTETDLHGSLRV
Sequence of UniProt Q7Z7E8 (whole entry, looked up): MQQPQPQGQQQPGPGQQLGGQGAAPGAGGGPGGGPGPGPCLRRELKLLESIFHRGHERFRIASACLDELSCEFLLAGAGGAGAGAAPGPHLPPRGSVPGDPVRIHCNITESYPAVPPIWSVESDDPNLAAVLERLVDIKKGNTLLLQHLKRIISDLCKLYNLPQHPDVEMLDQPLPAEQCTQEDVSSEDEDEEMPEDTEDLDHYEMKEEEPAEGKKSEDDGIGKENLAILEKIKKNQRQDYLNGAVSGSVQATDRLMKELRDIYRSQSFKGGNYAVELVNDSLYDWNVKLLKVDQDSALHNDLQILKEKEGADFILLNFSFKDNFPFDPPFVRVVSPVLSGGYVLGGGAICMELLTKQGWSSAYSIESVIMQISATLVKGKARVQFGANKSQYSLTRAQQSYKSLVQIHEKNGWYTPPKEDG
Sequence of UniProt Q9NPD8 (whole entry, looked up): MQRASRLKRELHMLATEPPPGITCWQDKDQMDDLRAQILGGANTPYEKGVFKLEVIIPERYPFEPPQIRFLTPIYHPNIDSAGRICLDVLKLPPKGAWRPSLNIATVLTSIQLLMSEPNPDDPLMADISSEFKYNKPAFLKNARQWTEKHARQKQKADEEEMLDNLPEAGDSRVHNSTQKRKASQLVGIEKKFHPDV
Sequence of UniProt P62253 (whole entry, looked up): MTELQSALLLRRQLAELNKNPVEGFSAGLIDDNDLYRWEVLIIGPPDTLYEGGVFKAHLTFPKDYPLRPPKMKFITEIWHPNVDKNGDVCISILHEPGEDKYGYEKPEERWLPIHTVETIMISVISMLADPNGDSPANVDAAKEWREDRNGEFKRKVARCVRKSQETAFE
Sequence of UniProt O00762 (whole entry, looked up): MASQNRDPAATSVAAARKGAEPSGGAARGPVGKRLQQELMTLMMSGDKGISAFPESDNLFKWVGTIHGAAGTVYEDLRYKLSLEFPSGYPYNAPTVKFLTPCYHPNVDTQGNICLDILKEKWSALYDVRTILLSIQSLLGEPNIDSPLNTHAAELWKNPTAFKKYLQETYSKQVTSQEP
Sequence of UniProt Q712K3 (whole entry, looked up): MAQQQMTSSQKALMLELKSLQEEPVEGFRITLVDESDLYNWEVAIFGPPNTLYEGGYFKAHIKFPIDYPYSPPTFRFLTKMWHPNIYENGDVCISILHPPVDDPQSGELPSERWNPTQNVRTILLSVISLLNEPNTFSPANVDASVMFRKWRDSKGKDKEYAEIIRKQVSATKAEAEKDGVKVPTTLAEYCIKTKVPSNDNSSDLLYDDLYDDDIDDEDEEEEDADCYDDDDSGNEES
Sequence of UniProt P68036 (whole entry, looked up): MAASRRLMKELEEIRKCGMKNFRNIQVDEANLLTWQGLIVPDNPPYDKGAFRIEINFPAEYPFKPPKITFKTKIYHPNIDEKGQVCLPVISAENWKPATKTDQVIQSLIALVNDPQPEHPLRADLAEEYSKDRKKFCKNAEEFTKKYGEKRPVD
Sequence of UniProt Q9C0C9 (whole entry, looked up): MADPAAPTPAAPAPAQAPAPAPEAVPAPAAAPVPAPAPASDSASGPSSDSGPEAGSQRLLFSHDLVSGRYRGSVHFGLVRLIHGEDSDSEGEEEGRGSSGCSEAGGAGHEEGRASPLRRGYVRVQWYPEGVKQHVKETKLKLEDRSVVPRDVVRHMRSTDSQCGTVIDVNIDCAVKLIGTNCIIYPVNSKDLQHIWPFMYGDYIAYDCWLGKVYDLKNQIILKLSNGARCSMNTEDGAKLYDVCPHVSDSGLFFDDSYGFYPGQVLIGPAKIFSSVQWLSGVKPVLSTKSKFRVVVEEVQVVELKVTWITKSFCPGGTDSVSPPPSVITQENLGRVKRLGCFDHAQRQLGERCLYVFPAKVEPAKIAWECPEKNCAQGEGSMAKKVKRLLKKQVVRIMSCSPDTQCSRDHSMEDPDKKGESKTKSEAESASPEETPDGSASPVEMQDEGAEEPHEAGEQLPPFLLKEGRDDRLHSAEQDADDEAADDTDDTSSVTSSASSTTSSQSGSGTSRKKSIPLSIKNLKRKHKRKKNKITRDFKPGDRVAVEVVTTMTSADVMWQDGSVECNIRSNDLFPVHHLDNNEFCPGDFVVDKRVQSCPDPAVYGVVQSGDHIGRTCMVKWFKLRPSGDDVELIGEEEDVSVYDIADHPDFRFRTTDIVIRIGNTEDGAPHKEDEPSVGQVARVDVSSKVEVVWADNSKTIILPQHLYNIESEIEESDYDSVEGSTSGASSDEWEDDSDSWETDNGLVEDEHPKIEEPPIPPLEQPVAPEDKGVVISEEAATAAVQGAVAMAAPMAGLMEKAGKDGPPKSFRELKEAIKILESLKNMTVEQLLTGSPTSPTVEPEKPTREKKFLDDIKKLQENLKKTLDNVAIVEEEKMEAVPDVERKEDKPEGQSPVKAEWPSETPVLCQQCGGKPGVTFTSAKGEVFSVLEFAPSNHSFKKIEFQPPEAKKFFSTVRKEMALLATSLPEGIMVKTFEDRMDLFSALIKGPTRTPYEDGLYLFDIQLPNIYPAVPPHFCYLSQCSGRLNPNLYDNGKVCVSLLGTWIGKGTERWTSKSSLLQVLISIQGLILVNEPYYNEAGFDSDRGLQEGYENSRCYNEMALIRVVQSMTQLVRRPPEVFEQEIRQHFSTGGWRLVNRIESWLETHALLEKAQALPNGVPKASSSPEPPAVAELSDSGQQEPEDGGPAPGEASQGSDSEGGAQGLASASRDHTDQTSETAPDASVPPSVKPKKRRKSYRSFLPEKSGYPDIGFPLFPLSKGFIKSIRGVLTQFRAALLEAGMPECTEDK
Sequence of UniProt P51668 (whole entry, looked up): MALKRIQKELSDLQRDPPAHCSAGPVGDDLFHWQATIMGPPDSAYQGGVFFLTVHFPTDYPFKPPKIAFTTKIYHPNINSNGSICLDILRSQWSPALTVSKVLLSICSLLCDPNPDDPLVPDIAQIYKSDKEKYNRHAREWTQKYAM
Sequence of UniProt Q16763 (whole entry, looked up): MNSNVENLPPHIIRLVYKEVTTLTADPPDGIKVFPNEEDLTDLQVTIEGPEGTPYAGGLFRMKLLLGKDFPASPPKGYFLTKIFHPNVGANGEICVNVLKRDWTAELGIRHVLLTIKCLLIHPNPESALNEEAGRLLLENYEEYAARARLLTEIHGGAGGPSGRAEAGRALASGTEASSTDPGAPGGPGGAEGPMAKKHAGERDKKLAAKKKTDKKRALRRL
Sequence of UniProt Q969T4 (whole entry, looked up): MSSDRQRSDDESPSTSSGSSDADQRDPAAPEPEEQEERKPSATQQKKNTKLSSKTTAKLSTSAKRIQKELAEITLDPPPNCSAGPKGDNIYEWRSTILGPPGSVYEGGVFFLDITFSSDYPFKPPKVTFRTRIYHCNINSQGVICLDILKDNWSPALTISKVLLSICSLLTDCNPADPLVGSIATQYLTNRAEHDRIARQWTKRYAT

Study 1 — technique: RNA Bind-n-Seq; molecule type: RNA; sample: in vitro; concentration: 365 nM; relative to: no-protein control; direction: higher = stronger binding
Target: RNA binding protein fox-1 homolog 2, RRM domain, GST-SBP tag (RBFOX2, Homo sapiens, UniProt O43251-10, residues 100-194)
Setting: natural RNA segment, single round, ends assumed
All sequences stand within: GGGAGUUCUACAGUCCGACGAUC … UGGAAUUCUCGGGUGCCAA
Target sequence (chain): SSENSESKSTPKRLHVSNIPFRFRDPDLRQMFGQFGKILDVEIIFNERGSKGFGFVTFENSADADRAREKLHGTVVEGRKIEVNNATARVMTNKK
| Sequence | RBNS enrichment (R) |
| --- | --- |
| UGUUAGCUACCCAUAAGAAUGCUGUUUGCUGCAGUUCUGUGUCCUGUGCUUGGAUGCUUUUUAUAAGAGUUGUCAUUGUUGGAAAUUCUUAAAUAAAACUGAUUUAAAUA | 3.14 |
| UGGCCCCUGCCCUCUGCCCUUUUGCCUGUCCUCAGGCCGCUGGAACAAAGGAAGGACAGCUCAUUCCUCAUGGGCGAUCACUCCGCAUCUAUAGGGUCGAGCCUAGGGGA | 0.615 |
| AUGCUCCCACCUGUCCAGGUAUUAAUGGAAUCCCCAGCAGGUGUCUAGAUGUAUGGGCAGGGCUGCACCAAGGCCUGGGCAUGCUUCCUCAGGGUAUCAAAGGAGCCCUU | 1.42 |
| UAUUUUGUCCAUGUUGGUGAUGUACUGUACUUCCCUUCCUUUUCUCUGCAUCCCCCAUCACCUCAUAGAAGACUCUUUGUUGAUCAUUGUAUGUUAAUAAUGUAUAAAAU | 20.6 |
| CAGACUCAAAGUUACUCUCCUUCCCCCUACCUGGGCCAGUGAAAUAGAAAGCCUUUCUAUUUUUUGGUGCGGGAGGGAAGACCUCUCACUUAGGGCAAGAGCCAGGUAUA | 0.245 |
| GUCAUUCGCUCAUGUAAGAGUUUUUAAGAGAGGGCUGAUUAUCACAGCCCUCUUUUCUCCUGAAUUUUUAAUGCAGAAGUUUGAAUGAAGCAAGGGAAGGCAUGUAGGGA | 2.44 |
| UGAAAGGGGUUUUUCCCUAGUCAAGCAUUUGGAGACACUUUUUGUAAAUGUGACUUUUAUGUCAGCCAUCGUCAGUUUCAACAUCUAGAACUAAAUAGAAAGCUAGUUGU | 0.38 |
| AGUGUGGGUAACAGUCACAGCAGUUUUUUUUACCAACAGCAUACUUAACAGACUUGCUGUGUAGCAGUUUUUUUCUGGUGGAGUUGCUGUAAGUCUUGUAAGUCUAAUGU | 0.444 |
| GAGUUUCUCUGUGUAGCUUUGGUUGUCCUGGAACUCACUCUGUAGACCAGGCCAGCCUUGAACUAACACAUAGGUUGGACCUCUGAAUGGCCUUAUACUUGGAUAUUUGG | 0.348 |
| GGUAGGGAAGCAGCAUAGGCCCCCAGGGAAACGACUCCACAGCAGGGCCUUCAUGGAUCUCCAAGUCUCUCAGUCUGGUCCAGCAGGUUCUCUGCUCAAAGCUGCCUGUC | 0.345 |
| AGAGGACAGUAGGGAAUCUGCCGAGGUGCCCGCACGUACUUUAGUGAGUUUAGCCAAACUAACAGCAGAAAUAAUACUGGAUUUUGAGUAAGCAGACUUAGGAGAAUAUU | 0.393 |
| CAGCGCCGCCGAGCUGACCCCACUCUGGAGCCUGGCCGAGCUGGCAGCAUGGAGCCCUCGGCUCCCCAGACUUUGCCGAGGGGCUGCUCCGGACCCCGUUGUGAGCCGGC | 5.82 |

Study 2 — technique: RNA Bind-n-Seq; molecule type: RNA; sample: in vitro; concentration: 1 µM; setting: whole 134-nt RNA, ends assumed; together with: 150 mM KCl; relative to: input library; direction: higher = stronger binding
Target: Ras GTPase-activating protein-binding protein 1, C-terminal RGG region (G3BP1, Homo sapiens, UniProt Q13283)
Sequence of UniProt Q13283 (whole entry, looked up): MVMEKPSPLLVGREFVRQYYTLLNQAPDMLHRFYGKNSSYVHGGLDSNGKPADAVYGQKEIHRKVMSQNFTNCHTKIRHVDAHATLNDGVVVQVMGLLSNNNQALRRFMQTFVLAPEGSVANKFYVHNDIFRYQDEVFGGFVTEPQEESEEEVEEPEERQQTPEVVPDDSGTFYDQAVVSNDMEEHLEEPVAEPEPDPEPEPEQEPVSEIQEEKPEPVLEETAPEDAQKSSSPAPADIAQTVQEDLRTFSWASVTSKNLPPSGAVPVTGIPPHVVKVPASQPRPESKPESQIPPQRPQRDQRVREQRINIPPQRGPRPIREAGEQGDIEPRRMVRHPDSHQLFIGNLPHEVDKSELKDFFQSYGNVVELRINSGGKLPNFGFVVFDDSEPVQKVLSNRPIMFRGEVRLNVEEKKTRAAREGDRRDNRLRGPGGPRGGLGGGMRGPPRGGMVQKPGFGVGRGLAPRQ
All sequences stand within: GGGAGUUCUACAGUCCGACGAUC … UGGAAUUCUCGGGUGUCAAGG
| Sequence | log2 enrichment |
| --- | --- |
| CAAGUCCUGUGCUACACAUCGUAUGUACCGAAUCGGCCCCGGGCCCCGGCCCCGGAAAGUAUUAUGUUACGCCGUUCGGAUCUGCACUUC | -1.99 |
| UCAAGUCCUGUGCUACACAUCGUAUGUACCGAAUCGGUGGAAAGGAAAAAAAGGAAAGUAUUAUGUUACGCCGUUCGGAUCUGCACUUCC | -1.44 |
| UGUGCUACACAUCGUAUGUACCGAAUCGGGUUUUUUUGGGGUUUUUUUGGGGUUUUUUUGGGGAAAGUAUUAUGUUACGCCGUUCGGAUC | -0.416 |
| CCUCAAGUCCUGUGCUACACAUCGUAUGUACCGAAUCGGGGCGGGCGGGCGGAAAGUAUUAUGUUACGCCGUUCGGAUCUGCACUUCCAG | 1.51 |
| UCCUGUGCUACACAUCGUAUGUACCGAAUCGGGUUUUUUGGUUUUUUGGGGUUUUUUGGGAAAGUAUUAUGUUACGCCGUUCGGAUCUGC | -0.585 |
| UGUGCUACACAUCGUAUGUACCGAAUCGGGGAAAAAGGGGAAAAAAAGGGGAAAAAAAGGGGAAAGUAUUAUGUUACGCCGUUCGGAUCU | 0.203 |
| CAAGUCCUGUGCUACACAUCGUAUGUACCGAAUCGGAAAAGGAAAAGGGAAAAGGAAAGUAUUAUGUUACGCCGUUCGGAUCUGCACUUC | -1.75 |
| UUACAUUACCUGGUGAAAUAGACAUUGACAGUAUCUCCUAUGAAGAGCUUUCACCACCUGAUGAAGAGCCUGCCAAGAAUAAAAAGGAAA | -2.18 |
| GCAGGAAGUAAAAACAAAUGGAAAUGCUUCGGAUAGCGGCAGGGGUGGGGGUUGCUAAGGAAAGGGUGGGAUGGGAGUGGGUAAAGAGUU | 0.552 |
| UCCUGUGCUACACAUCGUAUGUACCGAAUCGGGGUUUUUGGGGUUUUUGGGUUUUUGGGAAAGUAUUAUGUUACGCCGUUCGGAUCUGCA | 0.344 |
| CACAGACAACACGCACCCACACAGACACAGAGGGAAGGGGUUGGAAAGGGGACAGGGUGCACAGCAGGGCGGGGUAGGACCCCAGCCCCU | 0.172 |
| AAGUCCUGUGCUACACAUCGUAUGUACCGAAUCGGGGAAAGGGGAAAGGGGAAAGGAAAGUAUUAUGUUACGCCGUUCGGAUCUGCACUU | -0.413 |
| UCAAGUCCUGUGCUACACAUCGUAUGUACCGAAUCGGGUUUUUGGGAGGGUGGGAAAGUAUUAUGUUACGCCGUUCGGAUCUGCACUUCC | 1.24 |
| UCCUGUGCUACACAUCGUAUGUACCGAAUCGGGUUUUUUGGUUUUUUGGGUUUUUUGGGGAAAGUAUUAUGUUACGCCGUUCGGAUCUGC | -0.938 |

Study 3 — Sequence: B1 (TRIM47 RING domain); technique: yeast two-hybrid; sample: yeast; setting: mostly zero background; relative to: not given; direction: higher = stronger interaction
B1: TRIM47 RING domain (UniProt Q96LD4); chain MDGSGPFSCPICLEPLREPVTLPCGHNFCLACLGALWPHRGASGAGGPGGAARCPLCQEPFPDGLQLR
| target | lacZ reporter activity |
| --- | --- |
| UBE2L3 UBC core domain (UniProt P68036) | 0 |
| UBE2T UBC core domain (UniProt Q9NPD8) | 0 |
| UBE2I UBC core domain (UniProt P63279) | 0 |
| UBE2E3 UBC core domain (UniProt Q969T4) | 0 |
| UBE2D1 UBC core domain (UniProt P51668) | 0 |
| UBE2G1 UBC core domain (UniProt P62253) | 0 |
| UBE2Z UBC core domain (UniProt Q9H832) | 0 |
| UBE2M UBC core domain (UniProt P61081) | 0 |
| UBE2R2 UBC core domain (UniProt Q712K3) | 0 |
| UBE2C UBC core domain (UniProt O00762) | 0 |
| UBE2S UBC core domain (UniProt Q16763) | 0 |
| UBE2O UBC core domain (UniProt Q9C0C9) | 0 |
| BIRC6 UBC core domain (UniProt Q9NR09) | 0 |
| UBE2J1 UBC core domain (UniProt Q9Y385) | 0 |
| UBE2Q1 UBC core domain (UniProt Q7Z7E8) | 0 |

Study 4 — technique: protein binding microarray; molecule type: double-stranded DNA, one strand shown; sample: in vitro; concentration: not given; relative to: not given; direction: higher = stronger binding
Target: Histone acetyltransferase KAT6A, both winged helices, GST fusion (KAT6A, Homo sapiens, UniProt Q92794, residues 1-181)
Setting: 8-mer, flanks averaged, mean of 2 arrays, mostly near background
Residues (chain): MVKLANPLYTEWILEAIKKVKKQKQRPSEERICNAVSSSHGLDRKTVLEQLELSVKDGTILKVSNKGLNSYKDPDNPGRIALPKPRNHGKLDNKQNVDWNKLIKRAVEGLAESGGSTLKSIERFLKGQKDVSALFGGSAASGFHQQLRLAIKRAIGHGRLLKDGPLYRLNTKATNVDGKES
| Sequence | E-score |
| --- | --- |
| AAGCATGT | -0.0914 |
| CATTTCTA | 0.0263 |
| CCCAACTC | -0.166 |
| AAATAATT | 0.022 |
| ACTCATGA | 0.00734 |
| CAGGTGCG | 0.104 |
| ATTTTAAC | -0.17 |
| ACCATGGA | -0.172 |
| CATGTAGA | -0.147 |
| ACAGCCAG | -0.294 |
| CATCTAAC | -0.045 |
| GCGCACGC | 0.342 |
| GGACTACC | 0.00743 |
| CCCCGGGG | 0.286 |
| CCTCGGCA | 0.187 |
| AGTGAGCA | -0.128 |
| CCGGCAGA | 0.122 |
| AAGCCGAC | 0.191 |
| GAGTTCCA | -0.115 |
| GACGTAGA | -0.066 |
| ATTTCTCA | -0.11 |
| GCCCGCAA | 0.0994 |
| AGAATCAG | -0.0848 |
| CTAATGAG | -0.0863 |
| ATCCTTCA | -0.148 |
